Values quoted from earlier work that unrelated publications cite.
Lines come from different studies, so protocols differ. ± gives the spread as reported.

`O=C(CCCCCCC(=O)Nc1ccccc1)NO` gave a Tmax of 2 h (human; 200 mg, literature mean).
For `CO[C@H]1C[C@@H]2CC[C@@H](C)[C@@](O)(O2)C(=O)C(=O)N2CCCC[C@H]2C(=O)O[C@H]([C@H](C)C[C@@H]2CC[C@@H](OC(=O)C(C)(CO)CO)[C@H](OC)C2)CC(=O)[C@H](C)/C=C(\C)[C@@H](O)[C@@H](OC)C(=O)[C@H](C)C[C@H](C)/C=C/C=C/C=C/1C`, the Tmax was 0.5 h (human; intravenous, 25 mg once weekly, day 7 or 28).
`C[C@H](Nc1ncnc2[nH]cnc12)c1cc2cccc(Cl)c2c(=O)n1-c1ccccc1` has a Tmax of 1 to 2 h (human, hematologic malignancy; oral, 25 mg twice daily).
For `CC(C)NCC1CCc2cc(CO)c([N+](=O)[O-])cc2N1` (centres unmarked), the Tmax was 1.4 ± 0.417 h (healthy human; oral, 1000 mg).
`COc1cccc(CCc2ccccc2OCC(CN(C)C)OC(=O)CCC(=O)O)c1` (racemic) gave a Tmax of 0.66 h (human; oral, 50 mg single dose as hydrochloride, geometric mean).
For `CS(=O)(=O)CCNCc1ccc(-c2ccc3ncnc(Nc4ccc(OCc5cccc(F)c5)c(Cl)c4)c3c2)o1`, the Tmax was 3.5 h (human cancer patients, plasma; 1250 mg multiple doses, fed, median).
The Tmax of `COc1ccc(-n2nc(C(N)=O)c3c2C(=O)N(c2ccc(N4CCCCC4=O)cc2)CC3)cc1` is reported as no more than 3 h (human; oral, dose not given, immediate-release tablet).
For `COc1ccnc(C[S+]([O-])c2nc3ccc(OC(F)F)cc3[nH]2)c1OC` (centres unmarked), the Tmax was 2 h (human, nonobese children; age 6-11 y, historical; median).
With `COc1cc(N2CCC(N3CCN(C)CC3)CC2)ccc1Nc1ncc(Cl)c(Nc2ccccc2P(C)(C)=O)n1` the Tmax delay was 3.5 h (healthy human; oral, 180 mg, with: high-fat meal; relative to: fasted).
`Cc1[nH]c2ccccc2c1CCNCc1ccc(/C=C/C(=O)NO)cc1` gave a Tmax delay of roughly 2 h (human; high-fat meal; relative to: fasted).
With `O[C@@H](COc1cccc2ncccc12)CN1CCN([C@@H]2c3ccccc3[C@@H]3[C@H](c4ccccc42)C3(F)F)CC1` the Tmax was 1 to 4 h (human; oral, dose not given).

Excerpt of the above:
`O=C(CCCCCCC(=O)Nc1ccccc1)NO` gave a Tmax of 2 h (human; 200 mg, literature mean).
